{"data": "Measured values of several laboratories", "note": "Every numbered part comes from another study and shows a few of its results, in no order.", "chain of UniProt Q96PF2 (whole entry, looked up)": "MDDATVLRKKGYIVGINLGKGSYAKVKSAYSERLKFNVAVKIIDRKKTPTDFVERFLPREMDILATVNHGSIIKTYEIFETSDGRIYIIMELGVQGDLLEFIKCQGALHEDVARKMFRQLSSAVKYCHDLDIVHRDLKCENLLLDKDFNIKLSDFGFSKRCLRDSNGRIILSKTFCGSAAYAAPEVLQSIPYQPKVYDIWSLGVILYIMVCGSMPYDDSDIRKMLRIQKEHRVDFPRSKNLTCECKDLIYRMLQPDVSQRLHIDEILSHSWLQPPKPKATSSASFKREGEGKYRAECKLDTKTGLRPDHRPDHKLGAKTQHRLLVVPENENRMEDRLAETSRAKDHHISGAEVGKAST", "chain of UniProt Q13554 (whole entry, looked up)": "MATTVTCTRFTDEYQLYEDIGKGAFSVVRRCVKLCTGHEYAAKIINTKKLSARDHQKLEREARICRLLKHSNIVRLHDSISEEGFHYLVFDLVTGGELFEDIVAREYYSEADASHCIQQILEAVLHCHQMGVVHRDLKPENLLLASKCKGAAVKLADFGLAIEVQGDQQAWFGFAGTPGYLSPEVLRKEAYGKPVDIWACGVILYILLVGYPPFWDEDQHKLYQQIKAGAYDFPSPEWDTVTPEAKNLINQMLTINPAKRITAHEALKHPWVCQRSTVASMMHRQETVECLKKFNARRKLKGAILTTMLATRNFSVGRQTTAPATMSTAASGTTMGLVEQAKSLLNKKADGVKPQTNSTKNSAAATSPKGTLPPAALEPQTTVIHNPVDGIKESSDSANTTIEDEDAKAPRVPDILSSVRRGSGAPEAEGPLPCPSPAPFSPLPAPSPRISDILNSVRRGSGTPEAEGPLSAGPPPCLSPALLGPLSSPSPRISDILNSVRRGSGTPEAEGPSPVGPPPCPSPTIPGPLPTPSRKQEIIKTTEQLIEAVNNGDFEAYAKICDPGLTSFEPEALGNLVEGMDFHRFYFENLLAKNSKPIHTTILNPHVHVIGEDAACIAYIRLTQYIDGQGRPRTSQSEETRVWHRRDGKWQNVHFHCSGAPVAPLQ", "chain of UniProt P51451 (whole entry, looked up)": "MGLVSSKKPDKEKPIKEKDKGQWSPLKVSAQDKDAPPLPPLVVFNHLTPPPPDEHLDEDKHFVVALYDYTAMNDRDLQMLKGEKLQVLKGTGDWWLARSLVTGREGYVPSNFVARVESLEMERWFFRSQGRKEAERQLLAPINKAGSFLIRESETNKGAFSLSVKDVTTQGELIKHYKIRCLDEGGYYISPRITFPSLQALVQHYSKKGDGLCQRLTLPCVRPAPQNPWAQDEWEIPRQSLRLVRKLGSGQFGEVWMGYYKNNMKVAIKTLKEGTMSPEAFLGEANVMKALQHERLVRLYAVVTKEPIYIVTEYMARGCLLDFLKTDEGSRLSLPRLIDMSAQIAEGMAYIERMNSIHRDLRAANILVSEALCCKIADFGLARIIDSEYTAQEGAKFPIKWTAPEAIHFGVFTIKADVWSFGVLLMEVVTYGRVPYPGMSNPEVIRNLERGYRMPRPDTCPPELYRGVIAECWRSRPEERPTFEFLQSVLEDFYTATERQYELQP", "chain of UniProt P30530 (whole entry, looked up)": "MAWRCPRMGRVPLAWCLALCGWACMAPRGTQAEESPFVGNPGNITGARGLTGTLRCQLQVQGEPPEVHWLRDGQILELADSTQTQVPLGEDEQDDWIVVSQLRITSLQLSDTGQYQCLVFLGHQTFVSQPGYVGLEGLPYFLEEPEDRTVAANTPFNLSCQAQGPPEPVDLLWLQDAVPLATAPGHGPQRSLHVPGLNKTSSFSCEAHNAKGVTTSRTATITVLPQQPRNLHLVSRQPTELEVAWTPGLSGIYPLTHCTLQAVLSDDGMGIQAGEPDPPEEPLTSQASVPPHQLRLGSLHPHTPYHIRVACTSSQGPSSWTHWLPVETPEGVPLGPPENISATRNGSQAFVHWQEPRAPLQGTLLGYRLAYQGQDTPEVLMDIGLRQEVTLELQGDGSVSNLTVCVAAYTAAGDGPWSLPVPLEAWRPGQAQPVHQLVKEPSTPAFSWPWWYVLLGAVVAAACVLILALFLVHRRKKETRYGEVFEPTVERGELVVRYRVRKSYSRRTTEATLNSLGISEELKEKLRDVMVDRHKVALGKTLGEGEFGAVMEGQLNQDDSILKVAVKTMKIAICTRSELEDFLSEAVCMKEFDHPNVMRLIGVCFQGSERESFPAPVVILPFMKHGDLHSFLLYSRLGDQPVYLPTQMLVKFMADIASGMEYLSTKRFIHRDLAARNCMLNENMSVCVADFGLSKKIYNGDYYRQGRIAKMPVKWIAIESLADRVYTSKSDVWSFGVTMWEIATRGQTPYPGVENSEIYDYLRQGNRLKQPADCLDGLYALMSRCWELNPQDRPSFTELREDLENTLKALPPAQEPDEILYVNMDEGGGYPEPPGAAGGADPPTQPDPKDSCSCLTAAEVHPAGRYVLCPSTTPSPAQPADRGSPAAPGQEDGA", "chain of UniProt Q9H3Y6 (whole entry, looked up)": "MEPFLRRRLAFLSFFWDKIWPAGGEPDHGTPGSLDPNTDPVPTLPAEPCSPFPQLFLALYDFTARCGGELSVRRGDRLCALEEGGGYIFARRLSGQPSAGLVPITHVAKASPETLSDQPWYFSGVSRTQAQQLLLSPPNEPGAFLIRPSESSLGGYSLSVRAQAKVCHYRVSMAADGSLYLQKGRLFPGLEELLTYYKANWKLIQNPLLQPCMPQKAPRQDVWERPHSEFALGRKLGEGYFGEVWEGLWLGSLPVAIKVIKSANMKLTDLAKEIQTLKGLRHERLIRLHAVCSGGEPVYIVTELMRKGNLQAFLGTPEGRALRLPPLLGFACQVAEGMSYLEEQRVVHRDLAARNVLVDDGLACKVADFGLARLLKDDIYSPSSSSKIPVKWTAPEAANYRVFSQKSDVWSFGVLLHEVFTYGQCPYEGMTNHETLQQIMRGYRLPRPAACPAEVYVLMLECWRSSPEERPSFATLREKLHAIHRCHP", "chain of UniProt P06493 (whole entry, looked up)": "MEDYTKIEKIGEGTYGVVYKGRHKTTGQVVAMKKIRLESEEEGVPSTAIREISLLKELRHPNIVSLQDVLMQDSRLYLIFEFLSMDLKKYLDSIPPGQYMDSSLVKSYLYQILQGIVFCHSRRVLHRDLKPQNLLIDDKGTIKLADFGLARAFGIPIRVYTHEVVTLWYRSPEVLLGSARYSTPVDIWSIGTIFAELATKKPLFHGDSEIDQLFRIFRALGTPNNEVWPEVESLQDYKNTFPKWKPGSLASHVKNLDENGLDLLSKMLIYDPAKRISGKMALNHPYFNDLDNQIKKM", "chain of UniProt Q9UK32 (whole entry, looked up)": "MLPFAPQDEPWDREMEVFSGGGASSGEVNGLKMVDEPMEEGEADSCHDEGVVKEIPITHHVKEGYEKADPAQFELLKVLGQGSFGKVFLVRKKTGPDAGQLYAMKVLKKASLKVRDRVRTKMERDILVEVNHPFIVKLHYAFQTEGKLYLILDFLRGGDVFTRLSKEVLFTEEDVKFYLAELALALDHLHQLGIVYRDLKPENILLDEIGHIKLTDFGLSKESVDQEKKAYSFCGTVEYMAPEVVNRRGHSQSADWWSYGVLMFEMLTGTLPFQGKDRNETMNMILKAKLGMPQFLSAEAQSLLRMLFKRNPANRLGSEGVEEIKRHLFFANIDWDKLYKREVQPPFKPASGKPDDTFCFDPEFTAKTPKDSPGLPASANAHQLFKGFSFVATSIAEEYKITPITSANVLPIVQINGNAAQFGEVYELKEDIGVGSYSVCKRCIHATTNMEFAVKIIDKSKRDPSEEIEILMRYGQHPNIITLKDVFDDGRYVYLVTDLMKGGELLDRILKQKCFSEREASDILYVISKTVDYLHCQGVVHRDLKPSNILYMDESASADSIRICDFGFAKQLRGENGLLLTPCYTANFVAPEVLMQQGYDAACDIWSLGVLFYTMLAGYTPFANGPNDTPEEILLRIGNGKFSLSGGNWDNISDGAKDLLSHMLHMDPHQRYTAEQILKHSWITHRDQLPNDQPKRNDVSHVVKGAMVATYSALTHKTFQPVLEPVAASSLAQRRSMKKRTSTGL", "chain of UniProt Q9UEE5 (whole entry, looked up)": "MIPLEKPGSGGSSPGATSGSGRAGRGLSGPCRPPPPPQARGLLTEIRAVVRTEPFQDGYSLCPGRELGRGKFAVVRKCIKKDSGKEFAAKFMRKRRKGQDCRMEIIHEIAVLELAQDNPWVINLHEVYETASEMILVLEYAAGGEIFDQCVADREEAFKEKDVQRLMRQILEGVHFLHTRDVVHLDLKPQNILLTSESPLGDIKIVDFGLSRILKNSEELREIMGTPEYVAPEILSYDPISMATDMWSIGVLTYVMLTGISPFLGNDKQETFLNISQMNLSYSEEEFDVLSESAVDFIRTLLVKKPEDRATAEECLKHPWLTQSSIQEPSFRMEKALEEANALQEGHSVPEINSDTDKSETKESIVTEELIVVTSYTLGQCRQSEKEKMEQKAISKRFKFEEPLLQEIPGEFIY"}
{"data": "Block 1", "target": "Histamine H4 receptor (HRH4, Homo sapiens, UniProt Q9H3N8)", "effect on": "ligand displacement", "concentration": "10 µM", "chain of UniProt Q9H3N8 (whole entry, looked up)": "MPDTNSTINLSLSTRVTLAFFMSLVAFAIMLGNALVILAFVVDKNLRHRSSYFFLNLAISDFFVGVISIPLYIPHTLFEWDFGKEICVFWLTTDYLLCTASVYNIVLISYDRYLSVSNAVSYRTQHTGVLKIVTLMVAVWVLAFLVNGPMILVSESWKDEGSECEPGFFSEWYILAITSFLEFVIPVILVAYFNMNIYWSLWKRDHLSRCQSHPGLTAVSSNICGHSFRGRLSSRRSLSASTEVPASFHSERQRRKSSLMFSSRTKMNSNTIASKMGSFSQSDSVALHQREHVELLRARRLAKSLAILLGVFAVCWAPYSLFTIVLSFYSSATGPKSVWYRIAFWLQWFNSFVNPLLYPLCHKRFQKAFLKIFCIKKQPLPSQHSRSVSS"}
{"Compound": "CCOc1ccc(S(=O)(=O)Nc2ccc(Cl)cc2C#Cc2cnc(C(=O)O)cc2OC)c2ncccc12", "inhibition": "-39.4%"}
{"Compound": "CC[C@H](CC(=O)O)n1c(=O)c2ncccc2n(Cc2cn(C)c3cc(C)cc(C)c23)c1=O", "inhibition": "-5.56%"}
{"Compound": "C[C@H](c1ccnc(Nc2nc3ccc(-c4cc(N(C)C)ncn4)cc3[nH]2)c1)N1CCN(C(=O)CC(F)(F)F)CC1", "inhibition": "-0.75%"}
{"Compound": "Cc1c(NC(=O)c2cc(C(N)=O)nc3cc(F)ccc23)c(C(F)(F)F)nn1Cc1ccc(C#N)cc1", "inhibition": "29%"}
{"Compound": "NC(=O)c1ccc2nc(-c3ccc(C4(N)CCC4)cc3)c(-c3ccccc3)n2n1", "inhibition": "-24.6%"}
{"Compound": "O=c1nc(-c2ccccn2)sc2ccccc12", "inhibition": "-0.975%"}
{"Compound": "CS(=O)(=O)N1CCCC(NC(=O)[C@H](CCC2CCCCC2)NC(=O)c2ccc(CNC(=O)c3cnc4ccccn34)cc2)C1 (some centres unmarked)", "inhibition": "-7.56%"}
{"Compound": "COCCOc1nc(-c2ccc(Cl)nc2)nc2c1CN(C(=O)c1ncn3ccccc13)CC2", "inhibition": "-6.39%"}
{"Compound": "Cc1ccccc1Oc1cc(-n2c(=O)cc(C(F)(F)F)[nH]c2=O)c2ccccc2c1Cl", "inhibition": "-6.41%"}
{"Compound": "COc1cc(C(=O)O)ncc1C#Cc1ccccc1NS(=O)(=O)c1cccc2c(N(C)C)ccnc12", "inhibition": "-17.4%"}
{"Compound": "Nc1nc(NCc2ccccc2)nc(-c2ccccc2CO)n1", "inhibition": "8.3%"}
{"Compound": "CC1CCN(c2ccnc(NCc3cn(C)cn3)n2)CC1", "inhibition": "-31.3%"}
{"Compound": "Cc1ccc(-c2cnc([C@@]3(O)CC[C@H](C(=O)O)C(C)(C)C3)s2)cc1Nc1cccc(C(F)(F)F)n1", "inhibition": "8.06%"}
{"Compound": "O=C(N[C@H]1CCCCC/C=C\\C2C[C@@]2(C(=O)O)NC(=O)[C@@H]2C[C@@H](Oc3ccncc3)CN2C1=O)OC1CCCC1 (some centres unmarked)", "inhibition": "-8.87%"}
{"data": "Block 2", "Compound": "O=C1Nc2ccc(Br)cc2/C1=C/c1cc2c([nH]1)CCCC2", "effect on": "enzyme activity", "action": "inhibitor", "concentration": "0.5 µM", "reference": "control"}
{"target": "MAP kinase-activated protein kinase 3 (MAPKAPK3, Homo sapiens, UniProt Q16644)", "remaining activity [%]": 95.1}
{"target": "Ephrin type-A receptor 4 (EPHA4, Homo sapiens, UniProt P54764)", "remaining activity [%]": 94.8}
{"target": "Dual specificity tyrosine-phosphorylation-regulated kinase 3 (DYRK3, Homo sapiens, UniProt O43781)", "remaining activity [%]": 94}
{"target": "Serine/threonine-protein kinase WNK3 (WNK3, Homo sapiens, UniProt Q9BYP7)", "remaining activity [%]": 93.8}
{"target": "Ephrin type-B receptor 1 (EPHB1, Homo sapiens, UniProt P54762)", "remaining activity [%]": 85.5}
{"target": "cAMP-dependent protein kinase catalytic subunit gamma (PRKACG, Homo sapiens, UniProt P22612)", "remaining activity [%]": 98.1}
{"target": "Homeodomain-interacting protein kinase 2 (HIPK2, Homo sapiens, UniProt Q9H2X6)", "remaining activity [%]": 91}
{"target": "Ribosomal protein S6 kinase alpha-5 (RPS6KA5, Homo sapiens, UniProt O75582)", "remaining activity [%]": 90.3}
{"target": "Tyrosine-protein kinase Blk (BLK, Homo sapiens, UniProt P51451)", "remaining activity [%]": 74.4}
{"target": "Homeodomain-interacting protein kinase 4 (HIPK4, Homo sapiens, UniProt Q8NE63)", "remaining activity [%]": 104}
{"target": "Mitogen-activated protein kinase kinase kinase kinase 4 (MAP4K4, Homo sapiens, UniProt O95819)", "remaining activity [%]": 6.84}
{"target": "Ephrin type-B receptor 4 (EPHB4, Homo sapiens, UniProt P54760)", "remaining activity [%]": 88.6}
{"target": "Tyrosine-protein kinase receptor UFO (AXL, Homo sapiens, UniProt P30530)", "remaining activity [%]": 90}
{"target": "Calcium/calmodulin-dependent protein kinase type II subunit beta (CAMK2B, Homo sapiens, UniProt Q13554)", "remaining activity [%]": 85.8}
{"target": "3-phosphoinositide-dependent protein kinase 1 (PDPK1, Homo sapiens, UniProt O15530)", "remaining activity [%]": 95.3}
{"target": "Cyclin-dependent kinase 4, with cyclin D3 (CDK4, Homo sapiens, UniProt P11802)", "remaining activity [%]": 99.8}
{"target": "Cyclin-dependent kinase 1, with cyclin B (CDK1, Homo sapiens, UniProt P06493)", "remaining activity [%]": 98.5}
{"target": "Tyrosine-protein kinase ABL1 (ABL1, Homo sapiens, UniProt P00519)", "remaining activity [%]": 91.8}
{"target": "Testis-specific serine/threonine-protein kinase 2 (TSSK2, Homo sapiens, UniProt Q96PF2)", "remaining activity [%]": 89.8}
{"target": "Tyrosine-protein kinase Srms (SRMS, Homo sapiens, UniProt Q9H3Y6)", "remaining activity [%]": 104}
{"target": "Cyclin-dependent kinase 6, with cyclin D3 (CDK6, Homo sapiens, UniProt Q00534)", "remaining activity [%]": 85.8}
{"target": "Phosphorylase b kinase gamma catalytic chain, skeletal muscle/heart isoform (PHKG1, Homo sapiens, UniProt Q16816)", "remaining activity [%]": 60.2}
{"target": "Serine/threonine-protein kinase 16 (STK16, Homo sapiens, UniProt O75716)", "remaining activity [%]": 94.3}
{"target": "Ribosomal protein S6 kinase alpha-6 (RPS6KA6, Homo sapiens, UniProt Q9UK32)", "remaining activity [%]": 78.6}
{"target": "Serine/threonine-protein kinase 17A (STK17A, Homo sapiens, UniProt Q9UEE5)", "remaining activity [%]": 72.9}
{"data": "Block 3", "Structure (SMILES)": "CC(C)n1cnc(-c2ccc(F)cc2)c1-c1ncc(C(=O)Nc2ccc(N3CCN(C)CC3)cc2)[nH]1"}
{"assay": "refers to: skin papilloma, maximum grade 4", "test system": "idiopathic pulmonary fibrosis patients", "setting": "dose not given, all compound arms pooled", "patients with adverse event [%]": 0}
{"assay": "Phase 2a trial, refers to: blood creatinine increased", "test system": "human, idiopathic pulmonary fibrosis", "setting": "30 mg once daily, grade 2", "patients with adverse event [%]": 0}
{"assay": "Phase 2a trial, refers to: hyperlipidaemia", "test system": "human, idiopathic pulmonary fibrosis", "setting": "all compound arms total, grade 3", "patients with adverse event [%]": 0}
{"assay": "Phase 2a trial, refers to: blood pressure increased", "test system": "human, idiopathic pulmonary fibrosis", "setting": "all compound arms total, grade 5", "patients with adverse event [%]": 0}
{"assay": "Phase 2a trial, refers to: haemorrhoids", "test system": "human, idiopathic pulmonary fibrosis", "setting": "60 mg once daily, grade 5", "patients with adverse event [%]": 0}
{"assay": "Phase 2a trial, refers to: hyperlipidaemia", "test system": "human, idiopathic pulmonary fibrosis", "setting": "all compound arms total, grade 4", "patients with adverse event [%]": 0}
{"assay": "Phase 2a trial, refers to: hepatobiliary disorders", "test system": "human, idiopathic pulmonary fibrosis", "setting": "all compound arms total, grade 4", "patients with adverse event [%]": 0}
{"assay": "refers to: periorbital oedema, grade 3", "test system": "idiopathic pulmonary fibrosis patients", "setting": "oral, 30 mg once daily", "patients with adverse event [%]": 0}
{"assay": "Phase 2a trial, refers to: eosinophilia myalgia syndrome", "test system": "human, idiopathic pulmonary fibrosis", "setting": "30 mg once daily, grade 4", "patients with adverse event [%]": 0}
{"data": "Further values, each from its own experiment", "target": "GTPase KRas (KRAS, Homo sapiens, UniProt P01116, G13D)", "effect on": "target engagement in cells", "technique": "BRET"}
{"Compound": "CC(=O)N1CCN(c2nc(OC[C@@H]3CCCN3C)nc3c2CCN(c2cccc4cccc(Cl)c24)C3)C[C@@H]1CC#N", "IC50 [µM]": 1.06}
{"Compound": "CCC(=O)N1CCN(c2nc(OC[C@@H]3CCCN3C)nc3c2CCN(c2cccc4cccc(Cl)c24)C3)C[C@@H]1CC#N", "IC50 [µM]": 1.13}
{"note": "Repeated from above (block 2):"}
{"target": "Ephrin type-B receptor 1 (EPHB1, Homo sapiens, UniProt P54762)", "remaining activity [%]": 85.5}
{"target": "cAMP-dependent protein kinase catalytic subunit gamma (PRKACG, Homo sapiens, UniProt P22612)", "remaining activity [%]": 98.1}
{"target": "Homeodomain-interacting protein kinase 2 (HIPK2, Homo sapiens, UniProt Q9H2X6)", "remaining activity [%]": 91}
